Measurements pooled from the literature.
Protocols differ between the studies behind these lines. Values joined by “and” are separate records of one study, mostly repeats; a detail may differ. ± gives the spread as reported.
Chain of UniProt Q71U36 (whole entry, looked up): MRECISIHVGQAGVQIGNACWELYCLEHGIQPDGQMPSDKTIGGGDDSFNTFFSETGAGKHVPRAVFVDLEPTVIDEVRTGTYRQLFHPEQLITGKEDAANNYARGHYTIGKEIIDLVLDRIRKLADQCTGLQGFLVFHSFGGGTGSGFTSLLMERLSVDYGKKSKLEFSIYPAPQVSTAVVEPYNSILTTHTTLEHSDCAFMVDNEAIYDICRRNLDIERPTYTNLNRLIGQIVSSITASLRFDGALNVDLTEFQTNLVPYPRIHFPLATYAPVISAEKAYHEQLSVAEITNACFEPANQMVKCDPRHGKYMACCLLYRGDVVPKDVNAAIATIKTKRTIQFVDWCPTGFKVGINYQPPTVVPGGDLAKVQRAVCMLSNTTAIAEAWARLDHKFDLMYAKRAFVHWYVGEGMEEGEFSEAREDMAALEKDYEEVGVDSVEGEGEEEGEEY

For `CN1CC[C@@H](c2c(O)cc(O)c3c(=O)cc(-c4ccc(C(F)(F)F)cc4Cl)oc23)[C@@H]1CO`, “patients with adverse event” read 0% (item: Fatigue; B-cell malignancies; oral, 200 mg, intermittent dosing).
`CC(=O)c1c(C)c2cnc(Nc3ccc(C4CCN(CCS(C)(=O)=O)CC4)cn3)nc2n(C2CCCC2)c1=O` gave a Vd of 2080 L (human, plasma; oral, 25 mg, day 1 single dose).
With `Cn1ncc(-c2nc(N[C@H]3CC[C@H](N)CC3)ncc2Cl)c1CC1CC1` the Cmax was 25.7 ng/mL (HPLC-MS/MS; patients, plasma; oral, 5 mg, day 5).
The Lymphocytopenia incidence of `CCN1[C@@H](C(=O)NC23CCC(C(=O)O)(CC2)CC3)[C@H](c2cccc(Cl)c2F)[C@]2(C(=O)Nc3cc(Cl)ccc32)C12CCCCC2` is reported as 50% (patients with advanced solid tumours; oral, 200 mg).
`C[C@]1(CO)Cc2ncn(-c3ccc(C#N)c(Cl)c3)c2C(=O)O1` gave a Cmax of 335 nM (human; oral, 10 mg, fed, single dose, geometric mean).
Under “treatment-related adverse events”, `CCCCCCCCCCCCCCCC(=O)N[C@@H](CCC(=O)NCCCC[C@H](NC(=O)[C@H](CC(=O)O)NC(=O)[C@H](CO)NC(=O)[C@@H](NC(=O)[C@H](Cc1ccccc1)NC(=O)[C@@H](NC(=O)CNC(=O)[C@H](CCC(N)=O)NC(=O)[C@H](CO)NC(=O)[C@@H](N)Cc1c[nH]cn1)[C@@H](C)O)[C@@H](C)O)C(=O)N[C@@H](CO)C(=O)N[C@@H](CCC(=O)O)C(=O)N[C@@H](Cc1ccc(O)cc1)C(=O)N[C@@H](CC(C)C)C(=O)N[C@@H](CC(=O)O)C(=O)N[C@@H](CO)C(=O)N[C@@H](CCC(=O)O)C(=O)N[C@@H](CCCNC(=N)N)C(=O)N[C@@H](C)C(=O)N[C@@H](CCCNC(=N)N)C(=O)N[C@@H](CC(=O)O)C(=O)N[C@@H](Cc1ccccc1)C(=O)N[C@H](C(=O)N[C@@H](C)C(=O)N[C@@H](Cc1c[nH]c2ccccc12)C(=O)N[C@@H](CC(C)C)C(=O)N[C@@H](CCC(=O)O)C(=O)N[C@@H](C)C(=O)NCC(=O)NCC(=O)O)C(C)C)C(=O)O` is recorded as 0% (item: Headache; humans CrCl 45 to 60 mL/min; subcutaneous, 100 µg single dose).
`CCNCCCNC/C=C\CNCCCNCC` gave a serious TEAE of 54% (human, advanced solid tumours; intravenous, dose not given; baseline: patients).
Under “large unstained cells”, `CCc1ccc(CC/C=C/c2ccc3c(c2)C(=O)CC3)cc1` is recorded as 1.13% (Sprague-Dawley rat, female, blood; oral, 450 mg/kg/day, 14 days).
Under “grade ≥3 hyperglycaemia”, `Nc1nc2cc(-c3ccc4ncc(C(=O)N5CCOCC5)n4c3)ccc2o1` is recorded as 7% (advanced solid tumour patients; dose not given; baseline: patients).
`CN[C@@H](C)C(=O)N[C@H]1CN(S(=O)(=O)c2cccc(S(=O)(=O)N3CC[C@H]4CC[C@@H](C(=O)NC(c5ccccc5)c5ccccc5)N4C(=O)[C@@H](NC(=O)[C@H](C)NC)C3)c2)CC[C@H]2CC[C@@H](C(=O)NC(c3ccccc3)c3ccccc3)N2C1=O`: “treatment-related facial nerve disorder incidence” 0% (patients with advanced solid tumours; 20 mg, phase I monotherapy).
`COc1ccc(-c2c(-c3ccc(C#N)c(F)c3)nc(N3CCC(N)CC3)n(C)c2=O)cc1F`: “serious adverse event incidence” 5% (item: Anemia; human patients; oral, 60 mg, dose expansion).
`Brc1ccc(Oc2cc(Br)c(Br)cc2Br)c(Br)c1`: “milk fat partition ratio” 189 (cow whole milk; 2000 nM; baseline: milk fat over skim milk).
Under “musculoskeletal disorder TEAE”, `Cn1c(-c2ccc(C(N)=O)cc2F)nnc1C(C)(C)Oc1c(F)cc(Cl)cc1F` is recorded as 16.7% (human; oral, 30 mg, single ascending dose).
The total protein of `O=C(O)CCCOc1ccc(F)cc1-c1cc(-c2ccccc2C(F)(F)F)n(-c2ccccc2)n1` is reported as 5.88 ± 0.29 g/dL (Crl:CD(SD) rat, female, serum; intravenous, 25 µg/kg, 1 days post-dose).
`CC(C)(O)c1cc(Nc2cc(Oc3cn(C4CC4)nc3C3CCOCC3)ccn2)ccn1` — result for “treatment-emergent adverse events”: 0% (item: Asthenia; Japanese patients with advanced cancer; oral, dose not given, any grade).
`CC(C)[C@@H]1NC(=O)CNC(=O)[C@H](CC(N)=O)NC(=O)[C@H](CCCNC(=N)N)NC(=O)[C@H](Cc2ccc(O)cc2)NC(=O)[C@H](C(C)C)NC(=O)[C@@H](NC(=O)[C@@H](NC(=O)[C@H](CC(N)=O)NC(=O)[C@H](Cc2c[nH]c3ccccc23)NC(=O)[C@H](C)NC(=O)[C@H](Cc2ccccc2)NC(=O)CN)C(C)C)CSSC[C@@H](C(=O)N[C@@H](Cc2cnc[nH]2)C(=O)N[C@@H](CCCNC(=N)N)C(=O)N[C@@H](CCCNC(=N)N)C(=O)N[C@@H](C)C(=O)N[C@@H](CC(N)=O)C(N)=O)NC(=O)[C@H](C(C)C)NC(=O)[C@H](CCCNC(=N)N)NC1=O` — result for “group interaction score”: 0 (ICR mouse; ip, 10 mg/kg; direction not given).
The glucose of `Nc1ncnc2c1ncn2[C@@H]1O[C@@H]2COP(=O)([S-])O[C@@H]3[C@H](O)[C@@H](COP([O-])(=S)O[C@H]2[C@H]1O)O[C@H]3n1cnc2c(N)ncnc21.[Na+].[Na+]` (stereo partly shown) is reported as 10 ± 1.32 mmol/L (non-tumor-bearing mice, serum; intravenous, 1 mg/kg, toxicity study).
The t1/2 of `CCCCCCC#Cc1cncc(-c2nnc(SCc3cc([N+](=O)[O-])cc([N+](=O)[O-])c3)n2C)c1` is reported as over 480 min (human plasma; plasma stability).
The remaining binding of `C[C@H]1CN(c2n[nH]c3nc(N[C@H]4CC[C@H](NS(=O)(=O)CCC(F)(F)F)CC4)ncc23)CCO1` is reported as 1.17 (Tubulin alpha-1A chain (Homo sapiens, UniProt Q71U36); Kinobeads competition, item: TUBA1A; 0.8 µM, unit not given; baseline: vehicle).
`COc1ccc([C@@H]2CC(=O)c3c(O)cc(O)cc3O2)cc1O`: “urinary excreted amount, total” 5030 ± 3030 ng (male Sprague-Dawley rat, lean; oral, 100 mg/kg of neohesperidin, 0 to 12 h, after β-glucuronidase/sulfatase hydrolysis).
For `COC[C@]12CN(C)[C@@H]3[C@@H]4[C@H](OC)[C@H]1[C@@]3([C@@H](OC)C[C@H]2O)[C@@H]1C[C@@]2(O)[C@H](OC(=O)c3ccccc3)[C@@H]1[C@]4(OC(C)=O)[C@@H](O)[C@@H]2OC`, the MRT(0-t) was 2.65 ± 0.921 h (Sprague-Dawley rat, plasma; oral, dose not given, in PCW extract).
The tissue uptake of `CC[C@H](C)[C@H](NC(=O)[C@H](Cc1ccccc1)NC(=O)[C@H](CCC(=O)O)NC(=O)[C@H](CCCNC(=N)N)NC(=O)[C@H](C)NC(=O)[C@H](C)NC(=O)[C@H](CCC(N)=O)NC(=O)[C@H](CCC(=O)O)NC(=O)[C@H](CCC(=O)O)NC(=O)[C@H](CC(C)C)NC(=O)[C@H](Cc1ccc(O)cc1)NC(=O)[C@H](CO)NC(=O)[C@H](CO)NC(=O)[C@@H](NC(=O)[C@H](CC(=O)O)NC(=O)[C@H](CO)NC(=O)[C@@H](NC(=O)[C@H](Cc1ccccc1)NC(=O)[C@@H](NC(=O)CNC(=O)[C@H](CCC(=O)O)NC(=O)[C@H](C)NC(=O)CCc1cnc[nH]1)[C@@H](C)O)[C@@H](C)O)C(C)C)C(=O)N[C@@H](C)C(=O)N[C@@H](Cc1c[nH]c2ccccc12)C(=O)N[C@@H](CC(C)C)C(=O)N[C@H](C(=O)N[C@@H](CCCNC(=N)N)C(=O)NCC(=O)N[C@@H](CCCNC(=N)N)C(=O)N[C@@H](CCCCNC(=O)COCCOCCNC(=O)COCCOCCNC(=O)CC[C@H](NC(=O)CCCCCCCCCCCCCCCCC(=O)O)C(=O)O)C(=O)NCC(=O)NCC(=O)N[C@@H](CO)C(=O)N[C@@H](CCSC)C(=O)N[C@H](C(=O)N[C@@H](CCCCNc1c(NCCCCCN(O)C(=O)CCC(=O)NCCCCCN(O)C(=O)CCC(=O)NCCCCCN(O)C(C)=O)c(=O)c1=O)C(=O)O)C(C)C)C(C)C` [zirconium-89 labelled] is reported as 0.33 %ID/g (ex vivo gamma counting; male Sprague-Dawley rats, spleen; intravenous, 1 nmol, 24 h, mean of 3 animals).
The AST activity of `COc1ccc2nc3cc(Cl)ccc3c(Nc3cc(CN4CCCC4)c(O)c(CN4CCCC4)c3)c2n1` is reported as 49.2 U/L (mouse, blood; intraperitoneal, 28 mg/kg).
`O=C(Nc1ccccc1)C1CCN(C(=O)Oc2cccnc2)CC1`: “subjects with cardiac disorders” 7.1% (adverse event reporting; healthy women; oral, 60 mg, 7 days).
Under “treatment-emergent adverse events”, `COc1cc(N2CCC(N3CCN(C)CC3)CC2)ccc1Nc1ncnc(Nc2ccccc2S(=O)(=O)C(C)C)n1` is recorded as 3 number (percent) (item: Stomatitis; Japanese patients with solid tumours; oral, dose not given, all grades).
Under “grade 3 Hypothyroidism”, `COc1cc2c(Oc3ccc4[nH]c(C)cc4c3F)ccnc2cc1OCC1(N)CC1` is recorded as 0% (paediatric recurrent refractory sarcoma; 8 mg/kg).
`C1=Cc2nc1cc1ccc([n-]1)c(C1CC1)c1nc(cc3ccc([n-]3)c2C2CC2)C=C1.CC(=O)[O-].[Mn+3]` — result for “mean plasma concentration”: 245 ng/mL (LC-MS/MS; Sprague-Dawley rat, plasma; oral gavage, dose not given, 120 min).
Under “unbound plasma concentration”, `CN(C)C1(CNC(=O)c2ccc3c(c2)CCN3C(=O)c2ccccc2)CCOCC1` is recorded as 2650 nM (C57BL/6 mice, male, plasma; intraperitoneal, 50 mg/kg, 30 min).
`O=S(=O)(Nc1ccccc1)c1ccc(NC(=S)Nc2ccccc2)cc1`: “serum enzyme activity” 157 U/L (item: ALKP; female mouse, blood; oral, 80 mg/kg daily, 14 days).
`O=C(O)CCS(=O)(=O)O` has a plasma concentration of 322 ng/mL (human; oral, 265 mg twice daily, 2 h post-dose, week 65).
`C[C@@H](NC(=O)N1C(=O)[C@H](Cc2ccnc(N)c2)[C@H]1C(=O)O)C1CCCCC1`: “incidence of administration site extravasation” 0% (healthy adult Chinese volunteers; continuous intravenous infusion, 0.6 mg/kg/h, 5-day infusion, CTCAE 5.0 grading).
For `COc1cccc(Oc2ccccc2NC(=O)CNC(=O)c2cccc3ccccc23)c1`, the alkaline phosphatase was 93 U/L and 104 U/L and 92 U/L (esterase-deficient SCID mice, male; oral, 40 mg/kg/day, 14 days, toxicity study).
For `CC1(C)[C@H](C(=O)O[C@H](C#N)c2cccc(Oc3ccccc3)c2)[C@@H]1C=C(Br)Br`, “enzyme contribution to clearance” read 0.44% (item: CYP2B6; human, age 5 years, recombinant human CYP2B6; 0.1 µM).
With `CO[C@H]1C[C@@H]2CC[C@@H](C)[C@@](O)(O2)C(=O)C(=O)N2CCCC[C@H]2C(=O)O[C@H]([C@H](C)C[C@@H]2CC[C@@H](OC(=O)NCCOCCOCCOCCOCCOCCOCCOCCOCCC(=O)N3CCc4cc(Cn5nc(-c6ccc7oc(N)nc7c6)c6c(N)ncnc65)ccc4C3)[C@H](OC)C2)C[C@@H](O)[C@H](C)/C=C(\C)[C@@H](O)[C@@H](OC)C(=O)[C@H](C)C[C@H](C)/C=C/C=C/C=C/1C` the fatigue incidence was 58% (patients with advanced solid tumours; intravenous, 6 mg weekly, any grade).
Under “adverse event incidence”, `[O-][S+]1CCc2nc(N3CCC(c4ncc(Cl)cn4)CC3)nc(NC3(CO)CCC3)c21` (stereo not shown) is recorded as 37.5% (item: Headache; healthy male humans; 12 mg twice daily).
Under “concentration at steady state”, `CC[C@H](C)CCCCC(=O)N[C@@H](CCN)C(=O)N[C@H](C(=O)N[C@@H](CCN)C(=O)N[C@H]1CCNC(=O)[C@H]([C@@H](C)O)NC(=O)[C@H](CCN)NC(=O)[C@H](CCN)NC(=O)[C@H](CC(C)C)NC(=O)[C@@H](Cc2ccccc2)NC(=O)[C@H](CCN)NC1=O)[C@@H](C)O` is recorded as 3000 ng/mL (critically ill survivors, plasma; intravenous, 2.1 mg/kg/day, 6 h, median).
For `CN(C)CCc1c[nH]c2ccc(N=Nc3ccccc3)cc12`, “cis isomer at photostationary state” read 86% (light irradiation; solution; with: light 385 nm).
For `CC(C)CC(=O)OC[C@H]1O[C@@](C#N)(c2ccc3c(N)ncnn23)[C@H](O)[C@@H]1O`, the remaining compound was 0.04 ± 0.006% (Rats plasma; 5 µM, 15 min).
`N[C@@H]1c2ccccc2OC12CCN(c1cnc3c(N4CCCc5ncccc54)n[nH]c3n1)CC2`: “TEAE leading to death” 1.8% (patients advanced metastatic solid tumours; oral, dose not given, all patients).
`CC(C)n1c(C2CCNCC2)nc2c([N+](=O)[O-])c(Br)c(Br)cc21`: “adverse events causing discontinuation” 4% (item: Sepsis; AML patients; 125 mg).
